Published values pooled from the literature.
Values joined by “and” are separate records of one study, mostly repeats; a detail may differ. ± gives the spread as reported.
Penicillin-binding protein 2X: Penicillin-binding protein 2X (Streptococcus pneumoniae R6, UniProt P59676)
Ahsg: Alpha-2-HS-glycoprotein (Ahsg, Rattus norvegicus, UniProt P24090)
UniProt P27361, sequence (whole entry, looked up): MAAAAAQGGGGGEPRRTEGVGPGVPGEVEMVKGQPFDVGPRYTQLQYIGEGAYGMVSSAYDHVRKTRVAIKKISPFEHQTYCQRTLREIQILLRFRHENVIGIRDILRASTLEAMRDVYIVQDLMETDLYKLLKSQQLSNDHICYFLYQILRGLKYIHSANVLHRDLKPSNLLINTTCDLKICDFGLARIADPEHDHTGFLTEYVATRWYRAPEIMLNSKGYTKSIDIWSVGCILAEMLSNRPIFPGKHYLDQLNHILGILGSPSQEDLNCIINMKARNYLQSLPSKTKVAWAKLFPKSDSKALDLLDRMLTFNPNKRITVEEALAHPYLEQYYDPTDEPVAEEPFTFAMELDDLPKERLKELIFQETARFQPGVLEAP
UniProt P24090, sequence (whole entry, looked up): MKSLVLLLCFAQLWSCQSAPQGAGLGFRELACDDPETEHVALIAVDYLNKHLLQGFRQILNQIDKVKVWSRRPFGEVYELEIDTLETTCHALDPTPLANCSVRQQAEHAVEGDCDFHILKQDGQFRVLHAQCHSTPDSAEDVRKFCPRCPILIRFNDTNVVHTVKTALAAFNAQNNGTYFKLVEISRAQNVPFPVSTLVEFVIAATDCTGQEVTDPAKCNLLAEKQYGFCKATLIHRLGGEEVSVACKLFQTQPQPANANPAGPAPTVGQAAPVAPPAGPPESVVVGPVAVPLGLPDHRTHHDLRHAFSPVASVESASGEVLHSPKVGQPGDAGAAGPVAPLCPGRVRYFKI
UniProt Q8NDV2, sequence (whole entry, looked up): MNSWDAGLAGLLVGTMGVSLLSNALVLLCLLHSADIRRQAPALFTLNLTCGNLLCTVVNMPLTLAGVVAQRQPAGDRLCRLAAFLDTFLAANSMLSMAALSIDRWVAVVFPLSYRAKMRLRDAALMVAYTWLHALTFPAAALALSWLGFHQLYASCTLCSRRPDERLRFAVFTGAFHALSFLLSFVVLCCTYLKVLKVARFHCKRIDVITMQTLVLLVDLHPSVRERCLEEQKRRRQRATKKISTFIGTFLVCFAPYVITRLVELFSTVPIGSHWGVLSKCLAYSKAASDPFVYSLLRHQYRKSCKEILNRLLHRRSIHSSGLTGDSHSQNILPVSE
UniProt O75676, sequence (whole entry, looked up): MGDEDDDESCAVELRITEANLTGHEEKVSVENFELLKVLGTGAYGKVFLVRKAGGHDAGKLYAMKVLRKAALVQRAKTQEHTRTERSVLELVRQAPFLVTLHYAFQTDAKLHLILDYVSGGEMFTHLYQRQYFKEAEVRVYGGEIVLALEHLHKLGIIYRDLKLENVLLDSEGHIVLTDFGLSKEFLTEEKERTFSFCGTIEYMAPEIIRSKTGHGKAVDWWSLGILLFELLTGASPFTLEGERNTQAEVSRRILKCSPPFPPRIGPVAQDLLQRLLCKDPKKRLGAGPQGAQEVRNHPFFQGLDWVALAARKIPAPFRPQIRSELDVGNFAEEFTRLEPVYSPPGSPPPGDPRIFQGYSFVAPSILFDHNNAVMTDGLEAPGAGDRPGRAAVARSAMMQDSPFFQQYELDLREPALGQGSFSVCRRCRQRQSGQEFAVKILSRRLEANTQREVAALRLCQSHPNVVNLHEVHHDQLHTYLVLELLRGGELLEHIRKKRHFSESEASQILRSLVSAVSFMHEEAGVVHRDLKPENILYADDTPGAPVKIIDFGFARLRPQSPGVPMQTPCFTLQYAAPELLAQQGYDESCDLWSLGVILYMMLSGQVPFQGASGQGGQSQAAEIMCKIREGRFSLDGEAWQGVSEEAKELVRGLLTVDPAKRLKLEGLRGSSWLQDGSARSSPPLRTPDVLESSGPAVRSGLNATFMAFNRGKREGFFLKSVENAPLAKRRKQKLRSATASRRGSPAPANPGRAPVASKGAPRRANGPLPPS
UniProt Q00534, sequence (whole entry, looked up): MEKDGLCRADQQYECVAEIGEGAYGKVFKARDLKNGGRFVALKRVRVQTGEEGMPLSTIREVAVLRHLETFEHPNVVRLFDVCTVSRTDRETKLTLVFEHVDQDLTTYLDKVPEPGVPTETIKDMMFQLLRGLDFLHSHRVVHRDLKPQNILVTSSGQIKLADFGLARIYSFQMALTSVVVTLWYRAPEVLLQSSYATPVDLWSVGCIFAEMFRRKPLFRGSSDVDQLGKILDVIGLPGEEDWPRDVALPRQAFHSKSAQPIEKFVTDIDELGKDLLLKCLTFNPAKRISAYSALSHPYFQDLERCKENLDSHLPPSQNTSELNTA
UniProt P49238, sequence (whole entry, looked up): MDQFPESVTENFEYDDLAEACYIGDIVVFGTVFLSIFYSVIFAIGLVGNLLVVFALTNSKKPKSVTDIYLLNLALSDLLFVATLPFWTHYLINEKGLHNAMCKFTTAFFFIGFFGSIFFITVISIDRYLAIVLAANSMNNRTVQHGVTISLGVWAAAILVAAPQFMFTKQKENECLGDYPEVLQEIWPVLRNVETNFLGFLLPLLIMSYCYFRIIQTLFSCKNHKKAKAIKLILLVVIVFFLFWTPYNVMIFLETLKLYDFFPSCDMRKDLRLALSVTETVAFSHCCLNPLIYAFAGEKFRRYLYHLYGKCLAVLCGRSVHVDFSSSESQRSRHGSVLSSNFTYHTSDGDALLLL
UniProt O60658, sequence (whole entry, looked up): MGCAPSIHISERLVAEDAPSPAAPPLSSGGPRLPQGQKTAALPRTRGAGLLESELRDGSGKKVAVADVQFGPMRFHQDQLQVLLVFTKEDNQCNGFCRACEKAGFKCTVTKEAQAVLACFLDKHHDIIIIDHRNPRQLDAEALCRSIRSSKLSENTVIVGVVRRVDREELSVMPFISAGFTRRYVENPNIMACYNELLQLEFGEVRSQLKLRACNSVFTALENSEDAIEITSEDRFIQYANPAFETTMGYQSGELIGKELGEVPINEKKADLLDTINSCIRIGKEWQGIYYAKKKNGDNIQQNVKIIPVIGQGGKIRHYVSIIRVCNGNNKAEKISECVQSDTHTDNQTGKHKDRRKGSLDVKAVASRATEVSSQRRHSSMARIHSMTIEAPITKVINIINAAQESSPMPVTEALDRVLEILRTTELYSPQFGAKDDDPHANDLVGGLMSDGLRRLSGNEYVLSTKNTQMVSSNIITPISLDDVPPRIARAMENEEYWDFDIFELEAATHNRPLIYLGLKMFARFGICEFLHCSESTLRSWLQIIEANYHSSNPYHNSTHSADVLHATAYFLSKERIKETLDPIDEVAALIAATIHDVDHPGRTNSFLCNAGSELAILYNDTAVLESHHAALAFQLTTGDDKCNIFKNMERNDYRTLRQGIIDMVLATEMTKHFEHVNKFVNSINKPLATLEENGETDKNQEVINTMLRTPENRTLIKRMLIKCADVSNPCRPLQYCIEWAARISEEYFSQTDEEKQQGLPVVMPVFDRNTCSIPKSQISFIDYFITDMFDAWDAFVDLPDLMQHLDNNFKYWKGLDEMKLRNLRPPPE
UniProt Q14416, sequence (whole entry, looked up): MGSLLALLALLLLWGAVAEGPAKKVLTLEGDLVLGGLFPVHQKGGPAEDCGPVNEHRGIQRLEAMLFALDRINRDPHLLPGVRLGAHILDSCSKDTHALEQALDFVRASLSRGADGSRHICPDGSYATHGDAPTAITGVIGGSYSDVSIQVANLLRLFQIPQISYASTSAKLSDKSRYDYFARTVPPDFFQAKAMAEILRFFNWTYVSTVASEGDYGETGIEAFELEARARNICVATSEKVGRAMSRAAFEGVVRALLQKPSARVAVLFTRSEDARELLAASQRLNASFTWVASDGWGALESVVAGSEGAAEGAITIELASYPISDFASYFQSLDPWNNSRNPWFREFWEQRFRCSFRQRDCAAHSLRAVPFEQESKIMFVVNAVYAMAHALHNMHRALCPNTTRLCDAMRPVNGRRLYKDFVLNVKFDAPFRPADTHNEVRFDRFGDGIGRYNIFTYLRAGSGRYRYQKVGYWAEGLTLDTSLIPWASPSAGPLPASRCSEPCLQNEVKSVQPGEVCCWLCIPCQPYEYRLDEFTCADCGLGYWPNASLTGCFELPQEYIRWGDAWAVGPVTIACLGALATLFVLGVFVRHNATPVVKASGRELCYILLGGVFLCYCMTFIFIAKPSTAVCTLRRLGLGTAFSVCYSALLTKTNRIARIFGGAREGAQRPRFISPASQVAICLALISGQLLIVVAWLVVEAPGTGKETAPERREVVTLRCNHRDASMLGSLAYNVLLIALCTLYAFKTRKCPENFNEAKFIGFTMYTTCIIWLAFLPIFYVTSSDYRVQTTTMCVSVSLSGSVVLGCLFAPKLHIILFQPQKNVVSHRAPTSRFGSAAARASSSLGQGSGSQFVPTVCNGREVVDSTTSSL
UniProt O95983, sequence (whole entry, looked up): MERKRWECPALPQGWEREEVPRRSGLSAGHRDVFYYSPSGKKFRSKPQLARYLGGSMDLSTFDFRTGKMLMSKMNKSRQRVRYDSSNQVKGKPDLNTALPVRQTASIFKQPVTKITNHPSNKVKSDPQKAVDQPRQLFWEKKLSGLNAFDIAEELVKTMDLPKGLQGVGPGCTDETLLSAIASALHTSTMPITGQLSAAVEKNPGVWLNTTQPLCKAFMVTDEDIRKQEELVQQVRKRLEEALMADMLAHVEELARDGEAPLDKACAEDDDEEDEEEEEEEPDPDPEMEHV
UniProt Q13133, sequence (whole entry, looked up): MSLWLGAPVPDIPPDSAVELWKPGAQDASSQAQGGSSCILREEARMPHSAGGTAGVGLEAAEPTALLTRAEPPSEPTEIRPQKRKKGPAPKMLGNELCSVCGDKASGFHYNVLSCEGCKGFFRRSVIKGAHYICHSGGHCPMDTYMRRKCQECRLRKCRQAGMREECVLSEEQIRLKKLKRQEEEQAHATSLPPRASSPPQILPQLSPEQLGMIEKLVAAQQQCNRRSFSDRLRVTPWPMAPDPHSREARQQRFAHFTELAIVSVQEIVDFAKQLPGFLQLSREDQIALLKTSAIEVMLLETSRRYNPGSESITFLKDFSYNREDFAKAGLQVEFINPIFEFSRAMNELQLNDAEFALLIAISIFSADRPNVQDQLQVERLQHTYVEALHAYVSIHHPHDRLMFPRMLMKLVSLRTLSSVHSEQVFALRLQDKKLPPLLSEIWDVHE

SMILES	target	test	test system	setting	scale	quantity	result
COc1ccc(N2C(=O)N(c3c(C)cccc3Cl)Cc3cnc(Nc4ccc(C5CCN(C)CC5)cc4OC)nc32)nc1	CDK6 (Homo sapiens, UniProt Q00534)	kinase activity, inhibitor	–	0.5 µM, complex with -CYCLIND3	–	inhibition	7%
NC(=O)c1cc[n+](CC2=C(C(=O)O)N3C(=O)[C@@H](NC(=O)[C@@H](c4ccccc4)S(=O)(=O)[O-])[C@H]3SC2)cc1	Penicillin-binding protein 2X	inhibitor	Streptococcus pneumoniae	–	–	kinact/KI	1000 ± 6 M⁻¹ s⁻¹
Cc1ccc([C@H]2C[C@@H]2COc2cc(NCc3nnc(C)s3)nc(C)n2)nc1	PDE8A (Homo sapiens, UniProt O60658)	enzyme activity, inhibitor, IMAP fluorescence polarization	–	isoform PDE8A1	reference: Ki target over Ki PDE10A2	selectivity ratio	> 1.72e+06 fold
CCCCCCCCCC(=O)CC(=O)Nc1ccccc1	qscR (Pseudomonas aeruginosa, UniProt G3XD77)	ligand binding, FRET displacement	intact cells	apparent affinity	–	K0.5	22.7 µM
CN[C@@H]1C[C@H]2O[C@@](C)([C@@H]1OC)n1c3ccccc3c3c4c(c5c6ccccc6n2c5c31)C(=O)NC4	CDC2-like kinase 1 (Trypanosoma brucei brucei, UniProt Q382U0)	kinase activity, ADP-Glo	–	0.03906 µM	–	remaining activity	66.8%
CC(=O)C(c1ccccc1)c1ccccc1	NR1H3 (Homo sapiens, UniProt Q13133)	–	cells	concentration not given	–	activity	inactive
COc1cc(O)cc(/C=C/c2ccc(O)cc2)c1	O-methyltransferase (Sorghum bicolor, UniProt A0A1B6PFV1)	isothermal titration calorimetry	–	concentration not given, apo protein	–	ΔG of binding	-7.81 kcal/mol
CC12CCC(CC1)C(C)(C)O2	1,8-cineole 2-endo-monooxygenase (cinA, Citrobacter braakii, UniProt Q8VQF6, N242A)	ITC	–	25 °C, N242A enzyme variant	–	ΔH	1.22 ± 0.02 kcal/mol
O=C(O)Cc1c[nH]cn1	SLC6A6 (Homo sapiens, UniProt P31641, Y138A)	binding, microscale thermophoresis	–	46.3 nM, fitted curve	higher = more binding	fraction bound	0.000268
N#C[C@H](O[C@@H]1O[C@H](CO[C@@H]2O[C@H](CO)[C@@H](O)[C@H](O)[C@H]2O)[C@@H](O)[C@H](O)[C@H]1O)c1ccccc1	BGLU7 (Oryza sativa, UniProt Q75I93)	substrate	–	–	–	Km	5.86 ± 0.82 mM
Cc1cc(C)n2c1C=C1C=CC(CCC(=O)Nc3ccc(OCC(=O)N[C@@H]4C(=O)N5[C@@H]4SC(C)(C)[C@@H]5C(=O)[O-])cc3)=[N+]1[B-]2(F)F.[Na+]	Penicillin-binding protein 2X	whole-cell time course	live Streptococcus pneumoniae cells	–	–	kinact/KI	206000 ± 30000 M⁻¹ s⁻¹
COc1cc(Nc2ncc(F)c(Nc3ccc4c(n3)NC(=O)C(C)(C)O4)n2)cc(OC)c1OC	CAMKK2 (Homo sapiens, UniProt Q96RR4)	KINOMEscan	–	10 µM	–	inhibition	9%
CN(C(=O)n1cnc(-c2ccc[n+]([O-])c2)c1)C1CCCCC1	CX3CR1 (Homo sapiens, UniProt P49238)	radioligand binding, inhibitor	–	50 µM	–	inhibition	10%
COc1cc(N)c(Cl)cc1C(=O)NC1CN2CCC1CC2 (centres unmarked)	G-protein coupled receptor 26 (GPR26, Homo sapiens, UniProt Q8NDV2)	β-arrestin recruitment, TANGO luminescence, item: GPR26	–	concentration not given	reference: basal luminescence	log2 fold change	0.053
CCCCCCCCCC(=O)CC(=O)N[C@H]1CCOC1=O	qscR, DNA-bound (Pseudomonas aeruginosa, UniProt G3XD77)	DNA binding, ligand, EMSA	–	saturating ligand	–	Hill slope	2.2
CC[C@H](CO)Nc1nc(NCc2ccc(-c3ccccn3)cc2)c2ncn(C(C)C)c2n1	CSNK1G3 (Homo sapiens, UniProt Q9Y6M4)	KINOMEscan competition binding	–	10 µM, primary screen	direction not given	binding score	4.6
CN(C(=O)n1cnc(-c2ccc[n+]([O-])c2)c1)C1CCCCC1	Faah (Mus musculus, UniProt O08914)	enzyme activity, inhibitor, ex vivo	rat, brain	oral, 8 h	–	ED50	13.5 mg/kg
O=C(Nc1cccnn1)N1CCC(=Cc2cccc(Oc3ccc(C(F)(F)F)cn3)c2)CC1	Ahsg	competitive ABPP with azido-FP probe	rat brain soluble fraction	0.01 µM, unit not given	reference: DMSO	probe labelling	-1.2

SMILES	target	test	test system	setting	scale	quantity	result
O=C(Nc1nncs1)C(F)(F)I	MAPK8 (Homo sapiens, UniProt P45983)	binding, isothermal titration calorimetry	–	–	–	ligand efficiency	0.46
O=C[C@H](O)COP(=O)(O)O	TPI1 (Saccharomyces cerevisiae, UniProt P00942, Y208F)	substrate, GPDH/NADH-coupled	–	pH 4.9, 25 °C	–	kcat	~11 s⁻¹
CCOC(=O)COc1ccc2c(=O)c3ccccc3oc2c1	ache (Electrophorus electricus, UniProt O42275)	enzyme activity	–	3.36 µM, together with: substrate 6.90 mM	higher = faster reaction	reaction velocity	0.0034 a.u.
O=C(Nc1cnccc1Cl)N1CCN(Cc2ccc3c(c2)OC(F)(F)O3)CC1	Ahsg	competitive ABPP with azido-FP probe	rat brain soluble fraction	1 µM, unit not given	reference: DMSO	probe labelling	-1
Nc1nc2c(ncn2[C@@H]2O[C@@H]3COP(=O)(O)O[C@H]4[C@@H](O)[C@H](n5cnc6c(=O)[nH]c(N)nc65)O[C@@H]4COP(=O)(O)O[C@H]3[C@H]2O)c(=O)[nH]1	Cell cycle histidine kinase CckA, R374A; cytoplasmic region (Caulobacter vibrioides, UniProt Q9X688, R374A)	binding, ITC	–	together with: ADP 5 mM	–	ΔH	0.967 ± 0.0567 kcal/mol
[2H]c1c([2H])c([C@]2([2H])CCCN2C(=O)C(C)(C)Oc2ccc3cn[nH]c3c2)c([2H])c([2H])c1C([2H])([2H])[2H]	CAMK1D (Homo sapiens, UniProt Q8IU85)	KINOMEscan	–	1 µM	reference: DMSO control	remaining binding	84%
C[C@H]1CN(c2n[nH]c3nc(N[C@H]4CC[C@H](NS(=O)(=O)CCC(F)(F)F)CC4)ncc23)CCO1	Methyl-CpG-binding domain protein 3 (MBD3, Homo sapiens, UniProt O95983)	Kinobeads competition, item: MBD3	–	20 µM, unit not given	reference: vehicle	remaining binding	1.11
CC(C)[C@@H](O)CC[C@@H](C)[C@H]1CC[C@H]2[C@@H]3CC=C4C[C@@H](O)CC[C@]4(C)[C@H]3CC[C@]12C	Glutamate NMDA receptor; GRIN1/GRIN2B (GRIN1/GRIN2B, Homo sapiens, UniProt Q05586+Q13224, P557A)	positive allosteric modulator, two-electrode voltage clamp	Xenopus oocytes expressing GluN1-P557A	10 µM, 0.02% cremophor, together with: 100 µM glutamate and glycine	reference: without compound	current response	131 ± 5.6%
CN1CCN(c2cc(-c3ccncc3)c(-c3ccc4ccccc4c3)nn2)CC1	GRM2 (Homo sapiens, UniProt Q14416)	agonist, FLIPR	–	12.5 µM	–	activation	6%
C[C@]1(COC(=O)c2cc(Cl)ccc2O)[C@H](C(=O)O)N2C(=O)/C(=C/c3ccccn3)[C@H]2S1(=O)=O	Beta-lactamase (blaOXA-33, Acinetobacter baumannii, UniProt Q8RLA6)	inhibitor	–	–	–	kinact	0.04 ± 0.014 s⁻¹
COC(=O)[C@@]1(O)C[C@H]2O[C@]1(C)n1c3ccccc3c3c4c(c5c6ccccc6n2c5c31)C(=O)NC4	MAPK3 (Homo sapiens, UniProt P27361)	ADP-Glo	–	500 pM, together with: MBP substrate	–	kinase activity	104% and 91.6% and 60.2%
O=C(c1ccc(Cl)cc1)N1CCN2C(=O)N(OC(=O)N3CCOc4ccccc43)C(=O)C2C1 (centres unmarked)	Isoamyl acetate-hydrolyzing esterase 1 homolog (IAH1, Homo sapiens, UniProt Q2TAA2)	MS-based ABPP	SW-620 conditioned medium	10 µM, 1 h, 37 °C	reference: compound over DMSO, lower = more inhibition	median protein ratio	0.83
COc1ncccc1-c1cnn2ccc(N3CCN(C(=O)OC(C)C)CC3)nc12	Ribosomal protein S6 kinase alpha-4, C-terminal kinase domain (RPS6KA4, Homo sapiens, UniProt O75676)	KINOMEscan binding	–	1 µM	reference: untreated control	remaining binding	100%
COc1cc2c(NC3CCN(C)CC3)cc(-c3ccc(C)o3)nc2cc1OCCCN1CCCC1	DNMT1 (Homo sapiens, UniProt P26358)	enzyme activity	–	15.24 nM	–	inhibition	-8.18%
Nc1ncnc2c1ncn2[C@@H]1O[C@H](CO)[C@@H](OP(=O)(O)O)[C@H]1O	Thermonuclease (nuc, Staphylococcus aureus, UniProt P00644)	folding kinetics	–	unit not given	reference: prAp	phi value	0 ± 0.1
Nc1ncc(-c2nc(N3CCOCC3)nc(N3CCOCC3)n2)c(C(F)F)n1	MYLK4 (Homo sapiens, UniProt Q86YV6)	KINOMEscan	–	10 µM	reference: control	remaining binding	87%
Clc1cc2c(cc1Cl)Oc1cc(Cl)c(Cl)cc1O2	Uncharacterized protein (Takifugu rubripes, UniProt Q4JHL5)	reporter gene, agonist, dual-luciferase	COS-7	0.1 µM, 28 h	reference: DMSO	fold induction	2.58

For quick reference, copied from above:
SMILES	target	test	test system	setting	scale	quantity	result
NC(=O)c1cc[n+](CC2=C(C(=O)O)N3C(=O)[C@@H](NC(=O)[C@@H](c4ccccc4)S(=O)(=O)[O-])[C@H]3SC2)cc1	Penicillin-binding protein 2X	inhibitor	Streptococcus pneumoniae	–	–	kinact/KI	1000 ± 6 M⁻¹ s⁻¹
COc1cc(N)c(Cl)cc1C(=O)NC1CN2CCC1CC2 (centres unmarked)	G-protein coupled receptor 26 (GPR26, Homo sapiens, UniProt Q8NDV2)	β-arrestin recruitment, TANGO luminescence, item: GPR26	–	concentration not given	reference: basal luminescence	log2 fold change	0.053
CCOC(=O)COc1ccc2c(=O)c3ccccc3oc2c1	ache (Electrophorus electricus, UniProt O42275)	enzyme activity	–	3.36 µM, together with: substrate 6.90 mM	higher = faster reaction	reaction velocity	0.0034 a.u.
COC(=O)[C@@]1(O)C[C@H]2O[C@]1(C)n1c3ccccc3c3c4c(c5c6ccccc6n2c5c31)C(=O)NC4	MAPK3 (Homo sapiens, UniProt P27361)	ADP-Glo	–	500 pM, together with: MBP substrate	–	kinase activity	104% and 91.6% and 60.2%
CN(C(=O)n1cnc(-c2ccc[n+]([O-])c2)c1)C1CCCCC1	CX3CR1 (Homo sapiens, UniProt P49238)	radioligand binding, inhibitor	–	50 µM	–	inhibition	10%
CC[C@H](CO)Nc1nc(NCc2ccc(-c3ccccn3)cc2)c2ncn(C(C)C)c2n1	CSNK1G3 (Homo sapiens, UniProt Q9Y6M4)	KINOMEscan competition binding	–	10 µM, primary screen	direction not given	binding score	4.6
